Experimental data pooled from the literature.
Each line is one published result; not all experiments were run side by side. Numbers after ± are the reported error.

Structure (SMILES)	test	test system	setting	endpoint	value
CCCC[C@H](NC(=O)CNC(=O)CNC(=O)CN1CCN(CC(=O)O)CCN(CC(=O)O)CCN(CC(=O)O)CC1)C(=O)N[C@H]1CC(=O)NCCCC[C@@H](C(N)=O)NC(=O)[C@H](Cc2c[nH]c3ccccc23)NC(=O)[C@H](CCCNC(=N)N)NC(=O)[C@@H](Cc2ccccc2)NC(=O)[C@H](Cc2c[nH]cn2)NC1=O [lutetium-177 labelled]	–	C57 mouse, female, muscle	intravenous, 0.037 MBq, 2 h	tissue uptake	0.17 ± 0.09 %ID/g
CCCC[C@H](NC(=O)CNC(=O)CNC(=O)CN1CCN(CC(=O)O)CCN(CC(=O)O)CC1)C(=O)N[C@H]1CC(=O)NCCCC[C@@H](C(N)=O)NC(=O)[C@H](Cc2c[nH]c3ccccc23)NC(=O)[C@H](CCCNC(=N)N)NC(=O)[C@@H](Cc2ccccc2)NC(=O)[C@H](Cc2c[nH]cn2)NC1=O [technetium-99m labelled]	–	C57 mouse, bone	iv, 0.037 MBq, 24 h	tissue uptake	0.01 %ID/g
COC(=O)[C@H](CSSC(C)(C)[C@H](NC(=O)[C@H](CCC(=O)NC[C@H](O)[C@@H](O)[C@H](O)[C@H](O)CO)NC(=O)[C@H](CCC(=O)O)NC(=O)[C@H](CCC(=O)NC[C@H](O)[C@@H](O)[C@H](O)[C@H](O)CO)NC(=O)[C@H](CCC(=O)O)NC(=O)[C@H](CCC(=O)NC[C@H](O)[C@@H](O)[C@H](O)[C@H](O)CO)NC(=O)CC[C@H](NC(=O)c1ccc(NCc2cnc3nc(N)[nH]c(=O)c3n2)cc1)C(=O)O)C(=O)O)NC(=O)CC[C@H](NC(=O)c1ccc(NCc2cnc3nc(N)[nH]c(=N)c3n2)cc1)C(=O)O	–	Lewis rat, female, plasma	subcutaneous, 500 nmol/kg	Tmax	~30 min
CCCC[C@@H]1NC(=O)[C@@H](CC(C)C)NC(=O)[C@H](CCCCNC(=O)CN2CCN(CC(=O)O)CCN(CC(=O)O)CC2)NC(=O)NNC(=O)[C@H](Cc2c[nH]cn2)NC(=O)[C@@H](Cc2c[nH]c3ccccc23)NC1=O [copper-64 labelled]	measured: 64Cu	mouse plasma	37 °C	plasma protein binding	26%
N=C(N)NCCC[C@H](NC(=O)[C@@H]1CSSC[C@H](NC(=O)[C@H](Cc2ccc3ccccc3c2)NC(=O)[C@H](CCCNC(=N)N)NC(=O)[C@H](CCCNC(=N)N)NC(=O)CN2CCN(CC(=O)O)CCN(CC(=O)O)CC2)C(=O)N[C@@H](Cc2ccc(O)cc2)C(=O)N[C@@H](CCCNC(N)=O)C(=O)N[C@@H](CCCCN)C(=O)N[C@H](CCCCN)C(=O)N2CCC[C@H]2C(=O)N[C@@H](Cc2ccc(O)cc2)C(=O)N[C@@H](CCCNC(=N)N)C(=O)N[C@@H](CCCNC(N)=O)C(=O)N1)C(N)=O [gallium-68 labelled]	–	healthy human volunteers	dose not given, during imaging	vital signs, ECG, blood tests	no effect
CC(C)[C@H](NC(=O)[C@H](CCC(=O)O)NC(=O)[C@@H](NC(=O)[C@@H](C)c1cccc(C(=O)c2ccccc2)c1)C(C)C)C(=O)N[C@@H](CCC(=O)O)C(=O)O	–	water	–	minimum gelation concentration	≥ 5 mM
CN1C(=O)[C@@H](Cc2ccc(O)cc2)NC(=O)CNC(=O)[C@H](Cc2ccc3ccccc3c2)NC(=O)[C@H](CCCNC(=N)N)NC(=O)[C@H]1CCCNC(=O)c1ccc(CNC(=O)CN2CCN(CC(=O)O)CCN(CC(=O)O)CCN(CC(=O)O)CC2)cc1 [gallium-68 labelled]	extrapolated to adult male	C57BL/6 mice, kidneys	–	absorbed dose coefficient	0.0385 ± 0.0256 mGy/MBq
N=C(N)NCCC[C@@H]1NC(=O)[C@H](CCCCNC(=O)CCC(C(=O)O)N2CCCN3CCN(CCCN(CC(=O)O)CC3)CC2)NC(=O)[C@@H](Cc2ccc(O)cc2)NC(=O)[C@H](CC(=O)O)NC(=O)CNC1=O (stereo partly drawn) [copper-64 labelled]	–	SCID mouse	intravenous, dose not given, 24 h	dose excreted	94.7 ± 3.6%
N=C(N)NCCC[C@@H]1NC(=O)[C@H](CCCCNC(=O)CNC(=O)CNC(=O)CNC(=O)CC[C@H](NC(=O)CNC(=O)CNC(=O)CNC(=O)CN2CCN(CC(=O)O)CCN(CC(=O)O)CCN(CC(=O)O)CC2)C(=O)NCC(=O)NCC(=O)NCC(=O)NCCCC[C@@H]2NC(=O)[C@@H](Cc3ccccc3)NC(=O)[C@H](CC(=O)O)NC(=O)CNC(=O)[C@H](CCCNC(=N)N)NC2=O)NC(=O)[C@@H](Cc2ccccc2)NC(=O)[C@H](CC(=O)O)NC(=O)CNC1=O [copper-64 labelled]	–	athymic nu/nu mouse, female, kidney	intravenous, 4 h	tissue uptake	3.23 ± 0.4 %ID/g
CCCC[C@H](NC(=O)COCCOCCNC(=O)CN1CCN(CC(=O)O)CCN(CC(=O)O)CC1)C(=O)N[C@H]1CC(=O)NCCCC[C@@H](C(N)=O)NC(=O)[C@H](Cc2c[nH]c3ccccc23)NC(=O)[C@H](CCCNC(=N)N)NC(=O)[C@@H](Cc2ccccc2)NC(=O)[C@H](Cc2c[nH]cn2)NC1=O [copper-64 labelled]	–	C57 mice, spleen	intravenous, 0.37 MBq, 2 h	tissue uptake	0.26 ± 0.12 %ID/g
N=C(N)NCCC[C@@H]1NC(=O)[C@H](CCCCNC(=O)CNC(=O)CNC(=O)CNC(=O)CC[C@H](NC(=O)CNC(=O)CNC(=O)CNC(=O)CC[C@H](NC(=O)CN2CCN(CC(=O)O)CCN(CC(=O)O)CCN(CC(=O)O)CC2)C(=O)NCC(=O)NCC(=O)NCC(=O)N[C@@H](CCC(=O)NCC(=O)NCC(=O)NCC(=O)NCCCC[C@@H]2NC(=O)[C@@H](Cc3ccccc3)NC(=O)[C@H](CC(=O)O)NC(=O)CNC(=O)[C@H](CCCNC(=N)N)NC2=O)C(=O)NCC(=O)NCC(=O)NCC(=O)NCCCC[C@@H]2NC(=O)[C@@H](Cc3ccccc3)NC(=O)[C@H](CC(=O)O)NC(=O)CNC(=O)[C@H](CCCNC(=N)N)NC2=O)C(=O)NCC(=O)NCC(=O)NCC(=O)NCCCC[C@@H]2NC(=O)[C@@H](Cc3ccccc3)NC(=O)[C@H](CC(=O)O)NC(=O)CNC(=O)[C@H](CCCNC(=N)N)NC2=O)NC(=O)[C@@H](Cc2ccccc2)NC(=O)[C@H](CC(=O)O)NC(=O)CNC1=O [indium-111 labelled]	–	female athymic nu/nu mice, brain	intravenous, 4 h	tissue uptake	0.13 ± 0.07 %ID/g
CC(C)C[C@H](NC(=O)[C@@H](CCCCNC(=O)CCCCCNC(=O)CN1CCN(CC(=O)O)CCN(CC(=O)O)CCN(CC(=O)O)CC1)NC(=O)[C@H](Cc1ccc(O)cc1)NC(=O)[C@H](CO)NC(=O)[C@H](Cc1c[nH]c2ccccc12)NC(=O)[C@H](Cc1cnc[nH]1)NC(=O)[C@@H]1CCC(=O)N1)C(=O)N[C@@H](CCCNC(=N)N)C(=O)N1CCC[C@H]1C(=O)NCC(N)=O [indium-111 labelled]	–	female athymic nude mouse, skin	intravenous, 0.037 MBq, 4 h	tissue uptake	0.24 ± 0.03 %ID/g
